Experimental data gathered from unrelated publications.
± marks the error that the study gave.
dncV: dncV (Vibrio cholerae, UniProt Q9KVG7)

Structure (SMILES)	target or system	test	test system	setting	scale	quantity	value
NCCCCCCCCN1CCC23c4c5ccc(O)c4OC2c2nc4ccccc4cc2CC3(O)C1C5 (stereo not drawn)	Delta-type opioid receptor, with Gi1 (OPRD1, Homo sapiens, UniProt P41143)		human cells			Emax	60 ± 2%
CC(C)(C)c1cc(C(C)(C)C)c(-n2cc(-c3cnc4ccccc4c3O)nn2)cc1O	CFTR (Homo sapiens, UniProt P13569, G551D)	short-circuit current, potentiator	CFBE41o- G551D	added: forskolin 10 µM		EC50	inactive
CCCCCn1cc(C(=O)c2ccc3c(c2)CC(C)(C)C3)c2ccccc21	CNR1 (Homo sapiens, UniProt P21554, I267L/L193I/L359V)	Gαi1 engagement, agonist, BRET		CB1 triple mutant	relative to: wild type receptor	Emax increase	~35%
Nc1nc2c([C@@H]3O[C@@H]4COP(=O)(O)O[C@H]5[C@@H](O)[C@H](c6snc7c(=O)[nH]c(N)nc67)O[C@@H]5COP(=O)(O)O[C@H]4[C@H]3O)snc2c(=O)[nH]1	dncV	substrate			relative to: cyclization over intermediate degradation	k2/k3 ratio	26
CC(C)[C@H](N)C(=O)N[C@@H](Cc1ccc(O)cc1)C(=O)N[C@@H](CCCCN)C(=O)N[C@H](C(=O)N[C@@H](CCCCN)C(=O)N[C@H](C(=O)N[C@@H](CCCCN)C(=O)N[C@H](C(=O)N[C@@H](CCCCN)C(=O)N[C@H](C(=O)N[C@@H](CCCCN)C(=O)N[C@H](C(=O)N[C@@H](CCCCN)C(=O)N[C@H](C(=O)N[C@@H](CCCCN)C(=O)N[C@H](C(=O)N[C@@H](CCCCN)C(=O)N[C@H](C(=O)O)[C@@H](C)O)C(C)C)[C@@H](C)O)C(C)C)[C@@H](C)O)C(C)C)[C@@H](C)O)C(C)C		binding, SPR Langmuir fit	rVλ6Wil fibrils	300 nM, pH 7.4		Rmax	63 RU
Cc1ccc(NC(=O)C2(c3ccc4c(c3)OC(F)(F)O4)CC2)cc1-c1cccc(C(=O)O)c1	CFTR (Homo sapiens, UniProt P13569, del508-508)	chloride conductance, corrector	CFBE41o- F508del		relative to: 3 µM VX-809	Emax	120%
CCN(Cc1ccccc1)C(=O)CCc1nc(CN2CCN(C(=O)Cc3ccc(OC)c(OC)c3)CC2)no1	KCNQ4 (Homo sapiens, UniProt P56696)	potassium current, whole-cell patch clamp	CHO, stable	3 µM		activation V1/2	-29.7 ± 1.44 mV
C[C@H](NC(=O)[C@H](CCC(N)=O)NC(=O)[C@H](CCCCN)NC(=O)[C@H](C)NC(=O)[C@@H]1CCCN1C(=O)[C@H](C)NC(=O)[C@H](CCCCN)NC(=O)[C@H](CCC(N)=O)NC(=O)[C@H](C)NC(=O)[C@H](CCCCN)NC(=O)[C@H](CCC(N)=O)NC(=O)[C@@H]1CCCN1C(=O)[C@H](CCC(N)=O)NC(=O)[C@H](CCCCN)NC(=O)[C@H](C)NC(=O)[C@H](CCC(N)=O)NC(=O)[C@H](CCCCN)NC(=O)[C@H](C)NC(=O)[C@@H]1CCCN1C(=O)[C@H](C)NC(=O)[C@H](CCCCN)NC(=O)[C@H](CCC(N)=O)NC(=O)[C@H](C)NC(=O)[C@H](CCCCN)NC(=O)[C@H](CO)NC(=O)[C@H](Cc1ccc(O)cc1)NC(=O)CNC(=O)CNC(=O)CN)C(=O)N[C@@H](CCCCN)C(=O)N[C@@H](CCC(N)=O)C(=O)O		binding, SPR two-state model	rVλ6Wil fibrils	300 nM		Rmax	31.5 RU
Nc1nc2c([C@@H]3O[C@@H]4COP(=O)(O)O[C@H]5[C@@H](O)[C@H](c6scc7c(=O)[nH]c(N)nc67)O[C@@H]5COP(=O)(O)O[C@H]4[C@H]3O)scc2c(=O)[nH]1	dncV	first phosphodiester formation, substrate, HPLC		500 µM, 37 °C		rate constant k1	0.308 ± 0.003 M⁻¹ s⁻¹
C[C@@H](NC(=O)[C@@H](CCC(N)=O)NC(=O)[C@@H](C)NC(=O)[C@@H](CCCCN)NC(=O)[C@@H](CCC(N)=O)NC(=O)[C@@H](C)NC(=O)[C@@H](CCCCN)NC(=O)[C@@H](CCC(N)=O)NC(=O)[C@@H](C)NC(=O)[C@@H](CCC(N)=O)NC(=O)[C@@H](CCCCN)NC(=O)[C@@H](C)NC(=O)[C@@H](CCC(N)=O)NC(=O)[C@@H](CCCCN)NC(=O)[C@@H](C)NC(=O)[C@@H](CCC(N)=O)NC(=O)[C@@H](C)NC(=O)[C@@H](CCCCN)NC(=O)[C@@H](CCC(N)=O)NC(=O)[C@@H](C)NC(=O)[C@@H](CCCCN)NC(=O)[C@@H](CO)NC(=O)[C@@H](Cc1ccc(O)cc1)NC(=O)CNC(=O)CNC(=O)CN)C(=O)N[C@H](CCCCN)C(=O)N[C@H](CCC(N)=O)C(=O)N[C@H](C)C(=O)N[C@H](CCCCN)C(=O)N[C@H](CCC(N)=O)C(=O)O		binding, SPR two-state model	rVλ6Wil fibrils	300 nM		Rmax	63.4 RU
COc1ccc2cc(-c3c(C(=O)O)cccc3C(=O)O)ccc2c1	Nucleoprotein, monomeric (Influenza A virus, UniProt P15682)			1 µM		inhibition	29%
CCCCCn1cc(C(=O)c2cccc3c2CC(C)(C)C3)c2ccccc21	CNR1 (Homo sapiens, UniProt P21554, I267L)	Gαi1 engagement, agonist, BRET			relative to: reference agonist at wild-type CB1	Emax	67.5 ± 4.1%
CC(=O)N[C@@H](CCC(=O)O)C(=O)N[C@@H](CCC(N)=O)C(=O)N[C@H](C(=O)N[C@@H](CCC(=O)O)C(=O)N[C@@H](CC(C)C)C(=O)N[C@@H](CCC(=O)O)C(=O)N[C@@H](Cc1ccccc1)C(=O)N[C@@H](CC(=O)O)C(=O)O)C(C)C	Beta sliding clamp (Escherichia coli, UniProt P0A988)	urea HDX-MS		concentration not given, 25 °C, added: urea 4 M		unfolding rate	11.6 %/h
NCCCC[C@H](NC(=O)CNC(=O)CNC(=O)[C@H](CCCCN)NC(=O)CNC(=O)CNC(=O)CNC(=O)[C@H](CCCCN)NC(=O)CNC(=O)CNC(=O)[C@H](CCCCN)NC(=O)CNC(=O)CNC(=O)CNC(=O)[C@H](CCCCN)NC(=O)CNC(=O)CNC(=O)[C@H](CCCCN)NC(=O)CNC(=O)CNC(=O)CNC(=O)[C@H](CCCCN)NC(=O)CNC(=O)CNC(=O)[C@H](CCCCN)NC(=O)[C@H](CO)NC(=O)[C@H](Cc1ccc(O)cc1)NC(=O)CNC(=O)CNC(=O)CN)C(=O)NCC(=O)O		binding, SPR Langmuir fit	rVλ6Wil fibrils	300 nM, pH 7.4		Rmax	18.9 RU
CCCCCn1cc(C(=O)c2cccc3ccccc23)c2ccccc21	CNR1 (Homo sapiens, UniProt P21554, L193I)	Gαi1 engagement, agonist, BRET			relative to: wild type receptor	Emax reduction	~50%

Repeated from above:
Structure (SMILES)	target or system	test	test system	setting	scale	quantity	value
CCCCCn1cc(C(=O)c2ccc3c(c2)CC(C)(C)C3)c2ccccc21	CNR1 (Homo sapiens, UniProt P21554, I267L/L193I/L359V)	Gαi1 engagement, agonist, BRET		CB1 triple mutant	relative to: wild type receptor	Emax increase	~35%
Nc1nc2c([C@@H]3O[C@@H]4COP(=O)(O)O[C@H]5[C@@H](O)[C@H](c6snc7c(=O)[nH]c(N)nc67)O[C@@H]5COP(=O)(O)O[C@H]4[C@H]3O)snc2c(=O)[nH]1	dncV	substrate			relative to: cyclization over intermediate degradation	k2/k3 ratio	26
